{"data": "Experimental data of several laboratories", "note": "Numbered parts are unrelated; each lists some results of a single study.", "chain of UniProt P52333 (whole entry, looked up)": "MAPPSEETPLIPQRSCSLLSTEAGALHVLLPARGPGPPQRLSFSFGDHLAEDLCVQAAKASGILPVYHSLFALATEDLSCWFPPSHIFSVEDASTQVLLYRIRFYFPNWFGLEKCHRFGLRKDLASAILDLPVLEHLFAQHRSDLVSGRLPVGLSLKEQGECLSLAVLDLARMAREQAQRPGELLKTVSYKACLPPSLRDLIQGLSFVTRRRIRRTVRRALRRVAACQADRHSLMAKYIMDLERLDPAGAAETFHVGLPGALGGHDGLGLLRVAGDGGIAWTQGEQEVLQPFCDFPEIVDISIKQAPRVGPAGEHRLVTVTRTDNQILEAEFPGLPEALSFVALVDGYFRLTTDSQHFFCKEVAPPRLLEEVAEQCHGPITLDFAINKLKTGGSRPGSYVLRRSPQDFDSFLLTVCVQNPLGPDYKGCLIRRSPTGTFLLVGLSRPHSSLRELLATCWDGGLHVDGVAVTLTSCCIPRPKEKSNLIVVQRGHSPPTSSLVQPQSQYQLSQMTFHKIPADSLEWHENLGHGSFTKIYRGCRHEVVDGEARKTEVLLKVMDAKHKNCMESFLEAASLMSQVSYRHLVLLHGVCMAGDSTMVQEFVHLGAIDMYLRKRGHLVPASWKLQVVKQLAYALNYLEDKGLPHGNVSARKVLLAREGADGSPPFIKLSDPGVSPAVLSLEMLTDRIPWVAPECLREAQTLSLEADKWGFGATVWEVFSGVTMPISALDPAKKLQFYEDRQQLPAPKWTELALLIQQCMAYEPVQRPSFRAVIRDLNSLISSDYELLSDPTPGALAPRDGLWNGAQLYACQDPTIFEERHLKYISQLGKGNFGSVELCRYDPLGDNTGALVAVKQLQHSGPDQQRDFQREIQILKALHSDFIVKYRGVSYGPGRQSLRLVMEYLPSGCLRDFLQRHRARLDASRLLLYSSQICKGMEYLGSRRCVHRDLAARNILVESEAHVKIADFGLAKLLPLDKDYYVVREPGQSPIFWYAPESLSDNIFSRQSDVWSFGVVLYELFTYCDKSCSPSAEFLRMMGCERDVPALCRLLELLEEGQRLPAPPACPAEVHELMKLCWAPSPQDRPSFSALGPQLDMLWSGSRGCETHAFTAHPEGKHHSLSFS", "chain of UniProt Q9UHD2 (whole entry, looked up)": "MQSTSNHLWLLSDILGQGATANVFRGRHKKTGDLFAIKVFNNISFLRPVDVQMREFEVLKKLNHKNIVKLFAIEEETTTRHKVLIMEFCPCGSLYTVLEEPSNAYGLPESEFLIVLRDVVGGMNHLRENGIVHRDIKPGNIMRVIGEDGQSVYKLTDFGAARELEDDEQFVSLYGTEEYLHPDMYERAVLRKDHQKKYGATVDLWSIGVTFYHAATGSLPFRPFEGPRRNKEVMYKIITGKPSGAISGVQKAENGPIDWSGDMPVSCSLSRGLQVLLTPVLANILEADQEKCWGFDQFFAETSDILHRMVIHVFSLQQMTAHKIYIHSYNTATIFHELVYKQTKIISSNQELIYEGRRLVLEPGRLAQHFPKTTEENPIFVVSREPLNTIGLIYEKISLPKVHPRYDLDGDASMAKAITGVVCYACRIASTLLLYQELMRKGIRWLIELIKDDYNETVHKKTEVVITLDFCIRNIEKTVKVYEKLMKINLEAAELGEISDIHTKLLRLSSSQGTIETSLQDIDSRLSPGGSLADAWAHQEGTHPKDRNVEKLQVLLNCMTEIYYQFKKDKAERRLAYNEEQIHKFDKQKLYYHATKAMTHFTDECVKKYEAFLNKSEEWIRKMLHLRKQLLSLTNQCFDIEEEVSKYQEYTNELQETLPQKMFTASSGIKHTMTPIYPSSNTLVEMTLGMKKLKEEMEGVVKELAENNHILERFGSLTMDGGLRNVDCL", "chain of UniProt P10398 (whole entry, looked up)": "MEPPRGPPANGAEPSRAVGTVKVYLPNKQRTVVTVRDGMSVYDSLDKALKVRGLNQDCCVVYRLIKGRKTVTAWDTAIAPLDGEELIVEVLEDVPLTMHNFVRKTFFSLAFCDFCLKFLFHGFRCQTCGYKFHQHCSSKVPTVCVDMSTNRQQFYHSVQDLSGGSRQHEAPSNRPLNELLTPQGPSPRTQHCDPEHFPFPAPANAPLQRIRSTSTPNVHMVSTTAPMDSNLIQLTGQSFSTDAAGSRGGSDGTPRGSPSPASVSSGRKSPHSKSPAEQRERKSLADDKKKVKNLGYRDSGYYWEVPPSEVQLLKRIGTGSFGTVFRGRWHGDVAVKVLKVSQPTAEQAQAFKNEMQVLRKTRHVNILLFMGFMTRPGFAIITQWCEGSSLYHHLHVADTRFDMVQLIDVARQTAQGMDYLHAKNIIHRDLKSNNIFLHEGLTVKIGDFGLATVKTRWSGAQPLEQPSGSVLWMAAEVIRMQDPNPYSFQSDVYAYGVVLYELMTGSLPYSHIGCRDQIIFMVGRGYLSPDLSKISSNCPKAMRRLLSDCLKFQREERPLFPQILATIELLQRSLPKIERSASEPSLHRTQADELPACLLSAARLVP", "chain of UniProt P49841 (whole entry, looked up)": "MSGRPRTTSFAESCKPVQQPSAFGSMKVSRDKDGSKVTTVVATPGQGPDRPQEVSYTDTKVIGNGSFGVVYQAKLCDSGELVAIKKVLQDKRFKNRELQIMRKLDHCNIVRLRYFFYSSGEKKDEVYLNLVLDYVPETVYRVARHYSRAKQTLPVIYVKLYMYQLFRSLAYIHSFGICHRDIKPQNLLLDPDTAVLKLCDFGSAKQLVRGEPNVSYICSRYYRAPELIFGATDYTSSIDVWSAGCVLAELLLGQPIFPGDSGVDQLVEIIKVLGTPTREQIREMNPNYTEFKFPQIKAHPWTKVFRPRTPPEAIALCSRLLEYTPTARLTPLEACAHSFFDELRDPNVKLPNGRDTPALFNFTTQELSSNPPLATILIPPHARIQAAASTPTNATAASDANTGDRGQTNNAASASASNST", "chain of UniProt P29320 (whole entry, looked up)": "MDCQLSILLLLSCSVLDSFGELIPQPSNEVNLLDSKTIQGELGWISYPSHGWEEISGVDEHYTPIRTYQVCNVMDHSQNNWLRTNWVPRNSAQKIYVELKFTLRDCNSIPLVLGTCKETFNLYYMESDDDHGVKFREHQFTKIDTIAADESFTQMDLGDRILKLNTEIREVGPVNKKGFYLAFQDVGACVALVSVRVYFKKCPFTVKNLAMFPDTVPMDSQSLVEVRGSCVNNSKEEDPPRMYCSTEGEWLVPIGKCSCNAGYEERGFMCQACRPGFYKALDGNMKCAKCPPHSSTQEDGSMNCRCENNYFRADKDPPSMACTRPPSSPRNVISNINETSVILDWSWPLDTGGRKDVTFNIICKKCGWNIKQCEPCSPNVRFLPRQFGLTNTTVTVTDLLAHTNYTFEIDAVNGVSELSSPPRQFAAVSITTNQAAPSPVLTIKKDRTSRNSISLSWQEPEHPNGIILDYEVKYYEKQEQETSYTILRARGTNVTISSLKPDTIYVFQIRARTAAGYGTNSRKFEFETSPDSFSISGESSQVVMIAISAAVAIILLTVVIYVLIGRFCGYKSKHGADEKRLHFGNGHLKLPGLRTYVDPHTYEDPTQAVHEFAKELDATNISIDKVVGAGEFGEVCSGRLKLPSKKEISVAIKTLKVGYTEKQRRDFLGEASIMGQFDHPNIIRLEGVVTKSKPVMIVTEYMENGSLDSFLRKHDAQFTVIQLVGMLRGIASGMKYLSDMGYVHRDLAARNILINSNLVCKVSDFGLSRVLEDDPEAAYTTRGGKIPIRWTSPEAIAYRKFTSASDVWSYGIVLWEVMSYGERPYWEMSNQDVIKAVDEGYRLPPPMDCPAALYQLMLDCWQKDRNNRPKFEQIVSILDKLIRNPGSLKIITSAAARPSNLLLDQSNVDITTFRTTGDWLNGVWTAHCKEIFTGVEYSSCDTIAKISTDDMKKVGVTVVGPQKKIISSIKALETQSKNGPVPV", "chain of UniProt Q8WTQ7 (whole entry, looked up)": "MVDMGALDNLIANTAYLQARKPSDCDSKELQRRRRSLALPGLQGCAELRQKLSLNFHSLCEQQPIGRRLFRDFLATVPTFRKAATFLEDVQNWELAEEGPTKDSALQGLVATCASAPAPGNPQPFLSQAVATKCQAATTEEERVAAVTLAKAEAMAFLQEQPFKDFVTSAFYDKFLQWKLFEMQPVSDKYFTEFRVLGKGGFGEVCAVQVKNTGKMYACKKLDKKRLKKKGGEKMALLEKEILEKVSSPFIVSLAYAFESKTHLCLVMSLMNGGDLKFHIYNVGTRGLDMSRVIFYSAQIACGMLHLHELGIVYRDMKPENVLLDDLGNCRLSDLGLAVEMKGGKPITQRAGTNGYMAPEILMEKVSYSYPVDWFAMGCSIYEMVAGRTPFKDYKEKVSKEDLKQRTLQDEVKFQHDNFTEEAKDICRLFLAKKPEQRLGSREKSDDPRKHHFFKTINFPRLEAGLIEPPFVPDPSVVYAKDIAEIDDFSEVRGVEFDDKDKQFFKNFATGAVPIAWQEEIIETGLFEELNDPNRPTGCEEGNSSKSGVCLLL", "chain of UniProt Q9Y2U5 (whole entry, looked up)": "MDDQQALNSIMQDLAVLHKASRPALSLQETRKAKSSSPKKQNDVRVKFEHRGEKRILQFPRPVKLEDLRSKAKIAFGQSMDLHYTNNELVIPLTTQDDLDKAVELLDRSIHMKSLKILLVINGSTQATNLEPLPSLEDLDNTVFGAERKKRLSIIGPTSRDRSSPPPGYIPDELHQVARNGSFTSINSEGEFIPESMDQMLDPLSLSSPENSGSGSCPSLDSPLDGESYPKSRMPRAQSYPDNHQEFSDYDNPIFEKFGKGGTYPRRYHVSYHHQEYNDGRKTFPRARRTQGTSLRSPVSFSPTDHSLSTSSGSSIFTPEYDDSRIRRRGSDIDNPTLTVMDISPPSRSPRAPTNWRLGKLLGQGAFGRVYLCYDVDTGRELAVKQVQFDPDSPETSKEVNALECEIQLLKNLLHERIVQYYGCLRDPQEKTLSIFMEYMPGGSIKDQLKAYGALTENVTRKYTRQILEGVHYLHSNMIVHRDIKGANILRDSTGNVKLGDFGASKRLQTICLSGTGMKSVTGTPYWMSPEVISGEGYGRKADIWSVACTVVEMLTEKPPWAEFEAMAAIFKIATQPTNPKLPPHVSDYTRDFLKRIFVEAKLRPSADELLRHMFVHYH"}
{"data": "Study 1", "organism": "Sarcocystis neurona", "effect on": "parasite growth", "concentration": "concentration not given"}
{"Compound": "Nc1nc(Cl)nc2c1ncn2[C@@H]1O[C@H](CO)[C@@H](O)[C@H]1O", "inhibition": "-13.9%"}
{"Compound": "CS(=O)(=O)O.O=C(O[C@H]1C[C@H]2CC3C[C@@H](C1)N2CC3=O)c1c[nH]c2ccccc12", "inhibition": "-16.1%"}
{"Compound": "Cl.O=C(O)/C=C/c1ccc(Cn2ccnc2)cc1", "inhibition": "-14.9%"}
{"Compound": "CN1C(C(=O)Nc2ccccn2)=C(O)c2ccccc2S1(=O)=O.O", "inhibition": "-11.5%"}
{"Compound": "CC(CN1c2ccccc2Sc2ccccc21)N(C)C.Cl (centres unmarked)", "inhibition": "-11.6%"}
{"Compound": "COc1cc(OC)c(C(=O)CCCN2CCCC2)c(OC)c1.Cl", "inhibition": "-18%"}
{"Compound": "Cc1cccc(CCN2CCC(C(=O)c3ccc(NS(C)(=O)=O)cc3)CC2)n1.Cl.Cl", "inhibition": "2%"}
{"data": "Study 2", "Structure (SMILES)": "O=C(O)[C@H]1[C@H](Cn2nnc3ccccc3c2=O)CC[C@@H]1C(=O)c1ccc(OCCC2CCOCC2)cc1", "effect on": "cell-free assay", "method": "competition with immobilised ligand", "concentration": "1 µM"}
{"target": "Mitogen-activated protein kinase kinase kinase 2 (MAP3K2, Homo sapiens, UniProt Q9Y2U5)", "remaining binding [%]": 100}
{"target": "Tyrosine-protein kinase ABL1, phosphorylated (ABL1, Homo sapiens, UniProt P00519, H396P)", "remaining binding [%]": 100}
{"target": "Serine/threonine-protein kinase N2 (PKN2, Homo sapiens, UniProt Q16513)", "remaining binding [%]": 76}
{"target": "Serine/threonine-protein kinase PLK1 (PLK1, Homo sapiens, UniProt P53350)", "remaining binding [%]": 75}
{"target": "Tyrosine-protein kinase ABL1, non-phosphorylated (ABL1, Homo sapiens, UniProt P00519, T315I)", "remaining binding [%]": 100}
{"target": "Myosin light chain kinase (MYLK3, Homo sapiens, UniProt Q32MK0)", "remaining binding [%]": 93}
{"target": "Receptor-type tyrosine-protein kinase FLT3 (FLT3, Homo sapiens, UniProt P36888, D835V)", "remaining binding [%]": 92}
{"target": "Serine/threonine-protein kinase TAO3 (TAOK3, Homo sapiens, UniProt Q9H2K8)", "remaining binding [%]": 100}
{"target": "Epidermal growth factor receptor (EGFR, Homo sapiens, UniProt P00533, A750P/del747-749)", "remaining binding [%]": 100}
{"data": "Study 3", "host": "human", "sample": "microsomes or S9", "concentration": "2 µM", "time": "0.5 h"}
{"SMILES": "Cc1cc(Br)ccc1NC(=O)C(NS(=O)(=O)c1cccs1)c1ccccc1 (centres unmarked)", "remaining compound [%]": 10.7}
{"SMILES": "Cc1cc(S(=O)(=O)Nc2ccc(=O)n(C)n2)sc1C", "remaining compound [%]": "> 100"}
{"SMILES": "COc1ccc(COc2ncnc3sc(C)c(C)c23)cc1F", "remaining compound [%]": 1.61}
{"SMILES": "CC1(C)CC(NS(=O)(=O)c2ccccc2F)CC(C)(C)N1", "remaining compound [%]": "> 99"}
{"SMILES": "CN(C)c1nc(Cl)nc(Oc2ccc(=O)n(C)n2)n1", "remaining compound [%]": 87.1}
{"SMILES": "Cc1c[nH]c(CN(C)C(=O)c2cc(CC(C)C)no2)n1", "remaining compound [%]": 96}
{"SMILES": "CCCN(Cc1nnc(-c2ccco2)o1)C(=O)COc1c(Cl)cc(Cl)c2ccc(C)nc12", "remaining compound [%]": 84}
{"SMILES": "COCCN1CCS(=O)(=O)c2c(Cl)c(F)nc(Oc3ccc(OC)cc3)c21", "remaining compound [%]": 10.4}
{"SMILES": "O=C(Nc1cc(F)cc(F)c1)N1CCC(O)(CO)C1 (centres unmarked)", "remaining compound [%]": 98.4}
{"data": "Study 4", "SMILES": "Oc1cccc(-c2nc(N3CCOCC3)c3oc4ncccc4c3n2)c1", "effect on": "enzyme activity", "mode": "inhibitor", "concentration": "0.5 µM", "relative to": "control"}
{"target": "Serine/threonine-protein kinase TAO2 (TAOK2, Homo sapiens, UniProt Q9UL54)", "remaining activity": "92.2%"}
{"target": "Mitogen-activated protein kinase 3 (MAPK3, Homo sapiens, UniProt P27361)", "remaining activity": "94.1%"}
{"target": "Serine/threonine-protein kinase TBK1 (TBK1, Homo sapiens, UniProt Q9UHD2)", "remaining activity": "93%"}
{"target": "Angiopoietin-1 receptor (TEK, Homo sapiens, UniProt Q02763)", "remaining activity": "87.7%"}
{"target": "Mitogen-activated protein kinase kinase kinase 5 (MAP3K5, Homo sapiens, UniProt Q99683)", "remaining activity": "101%"}
{"target": "Tyrosine-protein kinase FRK (FRK, Homo sapiens, UniProt P42685)", "remaining activity": "91.3%"}
{"target": "Serine/threonine-protein kinase Nek6 (NEK6, Homo sapiens, UniProt Q9HC98)", "remaining activity": "106%"}
{"target": "MAP kinase-activated protein kinase 2 (MAPKAPK2, Homo sapiens, UniProt P49137)", "remaining activity": "97.8%"}
{"target": "Rhodopsin kinase GRK7 (GRK7, Homo sapiens, UniProt Q8WTQ7)", "remaining activity": "100%"}
{"target": "Ephrin type-A receptor 3 (EPHA3, Homo sapiens, UniProt P29320)", "remaining activity": "93.7%"}
{"target": "Ribosomal protein S6 kinase alpha-2 (RPS6KA2, Homo sapiens, UniProt Q15349)", "remaining activity": "88.1%"}
{"target": "Fibroblast growth factor receptor 3 (FGFR3, Homo sapiens, UniProt P22607)", "remaining activity": "101%"}
{"target": "Serine/threonine-protein kinase Nek1 (NEK1, Homo sapiens, UniProt Q96PY6)", "remaining activity": "77.8%"}
{"target": "Serine/threonine-protein kinase ULK2 (ULK2, Homo sapiens, UniProt Q8IYT8)", "remaining activity": "106%"}
{"target": "Glycogen synthase kinase-3 beta (GSK3B, Homo sapiens, UniProt P49841)", "remaining activity": "94.8%"}
{"target": "Dual specificity mitogen-activated protein kinase kinase 2 (MAP2K2, Homo sapiens, UniProt P36507)", "remaining activity": "85%"}
{"target": "Serine/threonine-protein kinase A-Raf (ARAF, Homo sapiens, UniProt P10398)", "remaining activity": "92%"}
{"target": "Wee1-like protein kinase (WEE1, Homo sapiens, UniProt P30291)", "remaining activity": "81.6%"}
{"target": "Casein kinase I isoform gamma-2 (CSNK1G2, Homo sapiens, UniProt P78368)", "remaining activity": "88.1%"}
{"target": "Tyrosine-protein kinase ABL2 (ABL2, Homo sapiens, UniProt P42684)", "remaining activity": "94.9%"}
{"target": "Casein kinase I isoform gamma-3 (CSNK1G3, Homo sapiens, UniProt Q9Y6M4)", "remaining activity": "99.9%"}
{"target": "Tyrosine-protein kinase JAK3 (JAK3, Homo sapiens, UniProt P52333)", "remaining activity": "99%"}
{"target": "Tyrosine-protein kinase Mer (MERTK, Homo sapiens, UniProt Q12866)", "remaining activity": "87.8%"}
{"data": "Other studies, line by line"}
{"SMILES": "O=C1CCC(N2Cc3cc(C4CCN(Cc5ccccc5)CC4)ccc3C2=O)C(=O)N1 (centres unmarked)", "test system": "ICR mouse, male, plasma", "setting": "oral, 3.0 mg/kg", "endpoint": "Tmax", "value": "30 min"}
{"SMILES": "CC(C)n1cnc(-c2ccc(F)cc2)c1-c1ncc(C(=O)Nc2ccc(N3CCN(C)CC3)cc2)[nH]1", "test system": "human, idiopathic pulmonary fibrosis", "setting": "30 mg once daily, trial, treatment-emergent", "endpoint": "patients with back pain", "value": "0%"}
{"note": "Repeated from above (study 4):"}
{"target": "Ribosomal protein S6 kinase alpha-2 (RPS6KA2, Homo sapiens, UniProt Q15349)", "remaining activity": "88.1%"}
{"target": "Fibroblast growth factor receptor 3 (FGFR3, Homo sapiens, UniProt P22607)", "remaining activity": "101%"}
{"target": "Serine/threonine-protein kinase Nek1 (NEK1, Homo sapiens, UniProt Q96PY6)", "remaining activity": "77.8%"}
{"target": "Serine/threonine-protein kinase ULK2 (ULK2, Homo sapiens, UniProt Q8IYT8)", "remaining activity": "106%"}
{"target": "Glycogen synthase kinase-3 beta (GSK3B, Homo sapiens, UniProt P49841)", "remaining activity": "94.8%"}
